Published values collected from several papers.
Compare with care: the assays were run in different laboratories. Several values in a cell are separate wells, animals, samples, runs or records. Numbers after ± are the reported error.
prp N63Q: Ribosomal processing cysteine protease Prp (prp, Staphylococcus aureus, UniProt Q2FXS9, N63Q)
F2: Prothrombin (F2, Homo sapiens, UniProt P00734)
HTR7: 5-hydroxytryptamine receptor 7 (HTR7, Homo sapiens, UniProt P34969)
ADORA2A: Adenosine receptor A2a (ADORA2A, Homo sapiens, UniProt P29274)
CES1: Liver carboxylesterase 1 (CES1, Homo sapiens, UniProt P23141)

With `O=[N+]([O-])c1ccc(S(=O)(=O)N2CCN(c3ccnc4cc(Cl)ccc34)CC2)c([N+](=O)[O-])c1` the inhibition was 6 ± 12.4% (prp N63Q; enzyme activity; 10 µM, 21.4 nM enzyme dimer, with: 0.5 µM FITC-labelled peptide substrate).
`O=C(Nc1ccc2c(c1)B(O)OC2)c1ccc(OCc2ccc(Cl)cc2)cc1` has an inhibition of ≤ 10% (F2; enzyme activity; 50 µM, with: substrate 50 µM).
`Cn1cccc1-c1cccnc1` gave an inhibition of -53.8% (HTR7; binding; 50 µM).
`COc1ccc(N2C(=O)N(c3c(C)cccc3Cl)Cc3cnc(Nc4ccc(C5CCN(C)CC5)cc4OC)nc32)nc1` has an inhibition of -46% (Activin receptor type-1 (ACVR1, Homo sapiens, UniProt Q04771); kinase activity, inhibitor; 0.5 µM, ALK2).
The inhibition of `O=C(Nc1cnccc1Cl)N1CCN(Cc2ccc3c(c2)OC(F)(F)O3)CC1` is reported as 27% (Testis-specific serine/threonine-protein kinase 2 (TSSK2, Homo sapiens, UniProt Q96PF2); kinase activity, inhibitor; 50 µM, human, with: CHKtide).
With `C[C@H]1N=C(c2ccccc2F)c2cc(Br)ccc2-n2cnc(C(=O)O)c21` the inhibition was 3.3 ± 4.8% (HTR7; binding; 10 µM).
`O=c1ccc2ccccc2o1` has an inhibition of -1.86% (voltage-gated sodium channel site 2; radioligand binding, antagonist; 10 µM).
With `COc1cccc(CO)c1` the inhibition was 8 ± 2% (ADORA2A; 30 µM).
For `CC[C@H](C)[C@H](NC(=O)[C@@H](NC(=O)[C@H](N)Cc1ccccc1)C(C)C)C(=O)N[C@@H](C)C(N)=O`, the inhibition was 74.6% (Amyloid-beta precursor protein (APP, Homo sapiens, UniProt P05067); amyloid-beta aggregation, thioflavin T fluorescence; 1.0 µM, 120 h, with: 2 µM amyloid-beta).
Under inhibition, `C=CCc1ccc(O)c(-c2cc(CC=C)ccc2O)c1` is recorded as “inhibited” (CES1; intracellular hydrolysis, inhibitor, bioluminescence imaging; renal cells; 20 µM).
`CCCCCn1c2ccccc2c2cc(C(=O)NCC3CCN(CC(=O)NC(C)(C)C)CC3)ccc21` has an inhibition of 42.5 ± 5% (Voltage-dependent T-type calcium channel subunit alpha-1I (CACNA1I, Homo sapiens, UniProt Q9P0X4); calcium current, blocker, whole-cell voltage clamp; 3 µM).
The inhibition of `CC(C)C[C@H](NC(=O)[C@H](CCc1ccccc1)NC(=O)CN1CCOCC1)C(=O)N[C@@H](Cc1ccccc1)C(=O)N[C@@H](CC(C)C)C(=O)[C@@]1(C)CO1` is reported as 21.6 ± 4.1% (prp N63Q; enzyme activity, inhibitor; 10 µM, prp 21.4 nM, with: FITC peptide substrate 0.5 µM).
The inhibition of `OB1OCc2ccccc21` is reported as ≤ 10% (F2; enzyme activity; 50 µM, with: substrate 50 µM).
With `COCc1c(-c2cc3cc(C)cc(OC)c3s2)c2c(N)ncnn2c1CN1CCNC(=O)C1` the inhibition was 11% (P2X purinergic receptor; radioligand binding; 10 µM).
For `O=c1cc(-c2ccccc2)oc2cc(O)c(O)c(O)c12`, inhibition read “no inhibition” (CES1; oseltamivir hydrolysis; recombinant human enzyme; 10 µmol/L, 60 min, with: oseltamivir 10 µmol/L).
For `O=C(Nc1ccc2c(c1)B(O)OC2)c1cccc(OCc2c(Cl)cccc2Cl)c1`, the inhibition was ≤ 10% (F2; enzyme activity; 50 µM, with: substrate 50 µM).
`COc1cc(Nc2ncc(F)c(Nc3ccc4c(n3)NC(=O)C(C)(C)O4)n2)cc(OC)c1OC` has an inhibition of 0% (Cyclin-dependent kinase 4 (CDK4, Homo sapiens, UniProt P11802); KINOMEscan; 10 µM, -cyclinD1).
For `O=C(Nc1ccc2c(c1)B(O)OC2)c1ccc(OCc2ccccc2)cc1`, the inhibition was ≤ 10% (F2; enzyme activity; 50 µM, with: substrate 50 µM).
`Cc1ncc(C)n2nc(/C=C/c3nc(N4CCCC4)cc(N4CCOCC4)n3)nc12` gave an inhibition of -3% (GABA transporter; radioligand binding; 10 µM).
The inhibition of `CN(C(=O)n1cnc(-c2ccc[n+]([O-])c2)c1)C1CCCCC1` is reported as 19% (Myotonin-protein kinase (DMPK, Homo sapiens, UniProt Q09013); kinase activity, inhibitor; 50 µM, with: Axltide substrate).
`CC(=O)NC[C@H]1[C@H](O)[C@H](O)[C@@H]2[C@H](O)C[C@@H](CO)N21` has an inhibition of 77% and 77.6% (β-N-acetylglucosaminidase; enzyme activity, inhibitor, colorimetric; Canavalia ensiformis; 2.58 nM, with: p-nitrophenyl GlcNAc substrate).
With `C[C@H](NC(=O)CCC(F)(F)F)C(=O)N[C@@H]1C(=O)N(CCO)c2ncccc2-c2ccccc21` the inhibition was -21 ± 6% (prp N63Q; enzyme activity, inhibitor; 10 µM, prp 21.4 nM, with: FITC peptide substrate 0.5 µM).
`CN(CCN1CCC(OC(=O)Nc2ccccc2-c2ccccc2)CC1)C(=O)c1ccc(CN2CCC(C(N)=O)CC2)cc1` has an inhibition of -10% (tyrosine hydroxylase; enzyme activity; 1 µM).
For `Cn1cc(-c2cccc(N3CCc4c(sc5c4CC(C)(C)C5)C3=O)c2CO)cc(Nc2ccncn2)c1=O`, the inhibition was 3% (Ribosomal protein S6 kinase alpha-2 (RPS6KA2, Homo sapiens, UniProt Q15349); kinase activity, inhibitor, SelectScreen kinase profiling; 1 µM, with: ATP at apparent Km).
`CC(=O)O/N=C1\C(=O)N(Cc2cc(Cl)ccc2Cl)c2ccc(Cl)cc21` has an inhibition of -5.19 ± 25.4% (prp N63Q; enzyme activity; 10 µM, 21.4 nM enzyme dimer, with: 0.5 µM FITC-labelled peptide substrate).
For `O=C(N1CCC2(CC1)C[C@H](CN1CCCCS1(=O)=O)CCO2)C1(c2ccccc2)CCCC1`, the inhibition was 0% (ATP-dependent RNA helicase DDX1 (Homo sapiens, UniProt Q92499); ATPase activity; 50 µM).
The inhibition of `COc1ccc(C[C@H](NC(=O)[C@H](C)NC(=O)CN2CCOCC2)C(=O)N[C@@H](Cc2ccccc2)C(=O)C2(C)CO2)cc1` (stereo in doubt) is reported as 15.9 ± 5.4% (prp N63Q; enzyme activity; 10 µM, 21.4 nM enzyme dimer, with: 0.5 µM FITC-labelled peptide substrate).
The inhibition of `O=C(Nc1cccnn1)N1CCC(=Cc2cccc(Oc3ccc(C(F)(F)F)cn3)c2)CC1` is reported as 57.1% (Fatty-acid amide hydrolase 1 (Faah, Rattus norvegicus, UniProt P97612); probe labelling, inhibitor, competitive ABPP with azido-FP probe; rat brain soluble fraction; 0.01 µM).
For `NC(=O)c1cccc(-c2c[nH]c3ncnc(N4CCOCC4)c23)c1`, inhibition read “inhibited” (Serine/threonine-protein kinase 4 (STK4, Homo sapiens, UniProt Q13043); kinase activity, inhibitor, PhosphoSens kinetic; concentration not given, 2 h, with: ATP at Km).
`CC(C)c1nc(CN(C)C(=O)N[C@H](C(=O)N[C@@H](Cc2ccccc2)C[C@H](O)[C@H](Cc2ccccc2)NC(=O)OCc2cncs2)C(C)C)cs1` has an inhibition of -17.1 ± 19.9% (prp N63Q; enzyme activity, inhibitor; 10 µM, prp 21.4 nM, with: FITC peptide substrate 0.5 µM).
For `Nc1ccc2c(c1)B(O)OC2`, the inhibition was ≤ 10% (F2; enzyme activity; 50 µM, with: substrate 50 µM).
`CC(=O)N[C@@H](CC(C)C)C(=O)N[C@@H](CC(C)C)C(=O)N[C@H](C=O)CCCNC(=N)N` gave an inhibition of 9.49 ± 39.8% (prp N63Q; enzyme activity, inhibitor; 10 µM, prp 21.4 nM, with: FITC peptide substrate 0.5 µM).
The inhibition of `C[C@H](C(=O)N[C@H]1COc2ccccc2[C@@H]1S(C)(=O)=O)c1ccc(F)cc1` is reported as -17% (phosphodiesterase 4, human; enzyme activity; 10 µM, Eurofins selectivity panel).
With `CN(C)C(=O)COC(=O)Cc1ccc(OC(=O)c2ccc(NC(=N)N)cc2)cc1` the inhibition was -6 ± 8% (prp N63Q; enzyme activity, inhibitor; 10 µM, prp 21.4 nM, with: FITC peptide substrate 0.5 µM).
For `CN1CCN(c2cc(-c3ccncc3)c(-c3ccc4ccccc4c3)nn2)CC1`, the inhibition was -10.9% (ADORA2A; antagonist, FLIPR; 10 µM).

A few entries again:
`CC(C)c1nc(CN(C)C(=O)N[C@H](C(=O)N[C@@H](Cc2ccccc2)C[C@H](O)[C@H](Cc2ccccc2)NC(=O)OCc2cncs2)C(C)C)cs1` has an inhibition of -17.1 ± 19.9% (prp N63Q; enzyme activity, inhibitor; 10 µM, prp 21.4 nM, with: FITC peptide substrate 0.5 µM).
For `Nc1ccc2c(c1)B(O)OC2`, the inhibition was ≤ 10% (F2; enzyme activity; 50 µM, with: substrate 50 µM).
`CC(=O)N[C@@H](CC(C)C)C(=O)N[C@@H](CC(C)C)C(=O)N[C@H](C=O)CCCNC(=N)N` gave an inhibition of 9.49 ± 39.8% (prp N63Q; enzyme activity, inhibitor; 10 µM, prp 21.4 nM, with: FITC peptide substrate 0.5 µM).
